{"data": "Assay results of several laboratories", "note": "Protocols differ between the studies behind these lines. Where no end group is shown, it is not given here."}
{"Molecule": "DVDHVFLRF-NH2 (C-amide)", "organism": "Drosophila melanogaster", "test": "heart rate", "system": "wandering third instar larval heart", "conditions": "40 nL injected, 1 µM, 10 min", "scale": "baseline: DMS", "inhibition": "127%"}
{"Molecule": "Cc1[nH]c2cc(CN3CCN(c4ccc(F)cc4)CC3)ccc2c(=O)c1Br", "organism": "Plasmodium berghei", "test": "parasite growth", "system": "GFP, blood stages, mouse", "conditions": "oral, 10 mg/kg, 144 h", "inhibition": "91%"}
{"Molecule": "CC(=O)OC[C@]12Oc3ccc(-c4ccc(O)c5c4O[C@@]4(COC(C)=O)C(=C(O)C[C@@H](C)[C@H]4OC(C)=O)C5=O)c(O)c3C(=O)C1=C(O)C[C@@H](C)[C@H]2OC(C)=O", "organism": "Phyllosticta citricarpa", "test": "mycelial growth", "conditions": "10000 µg/mL, 504 h", "inhibition": "51.4%"}
{"Molecule": "O=[N+]([O-])c1cc2nc(Cl)n(CCO)c2cc1[N+](=O)[O-]", "organism": "Human immunodeficiency virus 1", "test": "viral replication, inhibitor", "system": "TZM-bl", "conditions": "1 µg/mL", "inhibition": "-3.95%"}
{"Molecule": "DHVFLRF-NH2 (C-amide)", "organism": "Drosophila melanogaster", "test": "gut contraction", "system": "wandering third instar larval gut", "conditions": "injection, 1 µM, within 10 min", "scale": "baseline: DMS effect", "inhibition": "8%"}
{"Molecule": "C=C1[C@H](CO)[C@@H](O)C[C@@H]1n1cnc2c(=O)[nH]c(N)nc21", "organism": "Hepatitis B virus", "test": "HBV DNA production", "system": "HepG2.2.15, wild type", "conditions": "10 µM, 11 d exposure then 14 d without compound", "inhibition": "~40%"}
{"Molecule": "ADVDHVFLRF-NH2 (C-amide)", "organism": "Drosophila melanogaster", "test": "gut contraction", "system": "adult gut", "conditions": "1 µM, within 10 min", "scale": "baseline: DMS effect", "inhibition": "100%"}
{"Molecule": "OCCn1c(Cl)nc2ccccc21", "organism": "Human immunodeficiency virus 1", "test": "viral replication, inhibitor", "system": "TZM-bl", "conditions": "10 µg/mL", "inhibition": "2.06%"}
{"Molecule": "HVFLRF-NH2 (C-amide)", "organism": "Drosophila melanogaster", "test": "gut contraction", "system": "adult gut", "conditions": "1 µM, within 10 min", "scale": "baseline: DMS effect", "inhibition": "49%"}
{"Molecule": "O=C(NCC1CCNCC1)c1cc2ccc(-c3ccoc3)cc2[nH]1", "organism": "Zika virus", "test": "viral replication", "system": "U-87 MG, FLR", "conditions": "3 µM", "inhibition": "90%"}
{"Molecule": "O=C(NCc1ccc(F)c(Cl)c1)c1nc(Cl)c2cccnc2c1O", "organism": "Human betaherpesvirus 5", "test": "viral replication, inhibitor", "system": "HFF", "conditions": "10 µM", "inhibition": "6.8%"}
{"Molecule": "TDVDHVFLRA-NH2 (C-amide)", "organism": "Drosophila melanogaster", "test": "gut contraction", "system": "wandering third instar larval gut", "conditions": "injection, 1 µM, within 10 min", "scale": "baseline: DMS effect", "inhibition": "26%"}
{"Molecule": "O=C(NCc1ccc(F)cc1)c1nc(-c2cccc(Cl)c2)c2cccnc2c1O", "organism": "Human betaherpesvirus 5", "test": "viral replication, inhibitor", "system": "HFF", "conditions": "10 µM", "inhibition": "77%"}
{"Molecule": "OCCCn1c(Cl)nc2cc(Br)c(Br)cc21", "organism": "Human immunodeficiency virus 1", "test": "viral replication, inhibitor", "system": "TZM-bl", "conditions": "10 µg/mL", "inhibition": "-4.5%"}
{"Molecule": "Cc1ccc(CNC(=O)c2nc(Cl)c3cccnc3c2O)cc1", "organism": "Human betaherpesvirus 5", "test": "viral replication, inhibitor", "system": "HFF", "conditions": "10 µM", "inhibition": "51%"}
{"Molecule": "O=[N+]([O-])c1ccc2c(c1)nc(Cl)n2CCO", "organism": "Human immunodeficiency virus 1", "test": "viral replication, inhibitor", "system": "TZM-bl", "conditions": "1 µg/mL", "inhibition": "1.11%"}
{"Molecule": "O=C(NCC1CCNCC1)c1cc2ccc(-c3cn[nH]c3)cc2[nH]1", "organism": "Zika virus", "test": "viral replication", "system": "U-87 MG, FLR", "conditions": "10 µM", "inhibition": "< 68%"}
{"Molecule": "O=[N+]([O-])c1ccc2c(c1)nc(Cl)n2CCCO", "organism": "Human immunodeficiency virus 1", "test": "viral replication, inhibitor", "system": "TZM-bl", "conditions": "1 µg/mL", "inhibition": "-0.47%"}
{"Molecule": "VDHVFLRF-NH2 (C-amide)", "organism": "Drosophila melanogaster", "test": "gut contraction", "system": "wandering third instar larval gut", "conditions": "injection, 1 µM, within 10 min", "scale": "baseline: DMS effect", "inhibition": "29%"}
{"Molecule": "OCCn1c(Cl)nc2cc(Br)c(Br)cc21", "organism": "Human immunodeficiency virus 1", "test": "viral replication, inhibitor", "system": "TZM-bl", "conditions": "2.5 µg/mL", "inhibition": "65.7%"}
{"Molecule": "TAVDHVFLRF-NH2 (C-amide)", "organism": "Drosophila melanogaster", "test": "gut contraction", "system": "wandering third instar larval gut", "conditions": "injection, 1 µM, within 10 min", "scale": "baseline: DMS effect", "inhibition": "32%"}
